{"data": "Measured values of several laboratories", "note": "Lines come from different studies, so protocols differ."}
{"SMILES": "Cc1cc(-n2c(=O)[nH]c(=O)n(C)c2=O)ccc1Oc1ccc(SC(F)(F)F)cc1", "target": "biotinylated rabbit IgG", "conditions": "11-point dose-response, protein A and streptavidin binding", "quantity": "maximum response", "result": "-13.8%"}
{"SMILES": "O=C(Cc1ccc2ccccc2c1)N[C@H]1CCOC1=O", "target": "ExpR2 (Pectobacterium carotovorum)", "assay": "cellulase activity, agonist", "system": "Pectobacterium carotovorum, single-ExpR2 strain", "conditions": "200 µM, 4 h", "scale": "reference: OHHL", "quantity": "activation", "result": "56%"}
{"SMILES": "CCCCCCCCCCCCCCCCC(C(=O)O)C(O)(CC(=O)O)C(=O)O (stereo not shown)", "target": "biotinylated rabbit IgG", "conditions": "11-point dose-response, protein A and streptavidin binding", "quantity": "maximum response", "result": "5.4%"}
{"SMILES": "Nc1nc2c(ncn2[C@@H]2O[C@@H]3COP(=O)(O)O[C@H]4[C@@H](O)[C@H](n5cnc6c(N)ncnc65)O[C@@H]4COP(=O)(O)O[C@@H]2[C@@H]3O)c(=O)[nH]1", "target": "STING (human)", "assay": "agonist, confocal microscopy", "system": "HeLa Kyoto", "conditions": "concentration not given", "quantity": "time to STING Golgi translocation", "result": "~30 min"}
{"SMILES": "CCOP(=S)(OCC)Oc1nc(Cl)c(Cl)cc1Cl", "target": "nanobody A4", "assay": "binding, ic-ELISA", "conditions": "together with: H1-OVA coating antigen", "quantity": "IC50", "result": "> 4 µg/mL"}
{"SMILES": "COc1cc(Nc2ncc(F)c(Nc3ccc4c(n3)NC(=O)C(C)(C)O4)n2)cc(OC)c1OC", "target": "GABAA receptor chloride channel", "assay": "binding", "conditions": "together with: TBPS", "quantity": "IC50", "result": "> 10 µM"}
{"SMILES": "O=C(Cc1ccc(Br)cc1)N[C@H]1CCOC1=O", "target": "ExpR2 (Pectobacterium carotovorum)", "assay": "cellulase activity, antagonist", "system": "Pectobacterium carotovorum, single-ExpR2 strain", "conditions": "5 µM, 4 h, together with: OHHL 5 µM", "quantity": "inhibition", "result": "62%"}
{"SMILES": "COP(=S)(OC)Oc1ccc([N+](=O)[O-])c(C)c1", "target": "nanobody A4", "assay": "binding, ic-ELISA", "quantity": "IC50", "result": "> 10 µM"}
{"SMILES": "O=C(Cc1cccc(Br)c1)N[C@H]1CCOC1=O", "target": "ExpR2 (Pectobacterium carotovorum)", "assay": "cellulase activity, antagonist", "system": "Pectobacterium carotovorum, single-ExpR2 strain", "conditions": "5 µM, 4 h, together with: OHHL 5 µM", "quantity": "inhibition", "result": "59%"}
{"SMILES": "CCOP(=S)(OCC)SCn1c(=O)oc2cc(Cl)ccc21", "target": "nanobody A4", "assay": "ic-ELISA", "conditions": "concentration not given", "scale": "reference: coumaphos IC50 over compound IC50, molar basis", "quantity": "cross-reactivity", "result": "3%"}
{"SMILES": "CCCCCCCCCCCCCCCC[N+](C)(C)Cc1ccccc1.[Cl-]", "target": "biotinylated rabbit IgG", "conditions": "11-point dose-response, protein A and streptavidin binding", "quantity": "maximum response", "result": "20.7%"}
{"SMILES": "O=C(Cc1cccc(Cl)c1)N[C@H]1CCOC1=O", "target": "ExpR2 (Pectobacterium carotovorum)", "assay": "cellulase activity, agonist", "system": "Pectobacterium carotovorum, single-ExpR2 strain", "conditions": "200 µM, 4 h", "scale": "reference: OHHL", "quantity": "activation", "result": "81%"}
{"SMILES": "CCOP(=S)(OCC)SCCSCC", "target": "nanobody A4", "assay": "binding, ic-ELISA", "quantity": "IC50", "result": "> 10 µM"}
{"SMILES": "O=C(Nc1cccnn1)N1CCN([C@@H]2CCOc3cc(C(F)(F)F)ccc32)CC1", "target": "central benzodiazepine receptor", "assay": "binding", "conditions": "20 µM", "quantity": "inhibition", "result": "6%"}
{"SMILES": "CCOP(=S)(OCC)Oc1ccc(Cl)cc1Cl", "target": "nanobody A4", "assay": "binding, ic-ELISA", "conditions": "together with: H1-OVA coating antigen", "quantity": "IC50", "result": "> 4 µg/mL"}
{"SMILES": "O=C(Cc1ccc(I)cc1)N[C@H]1CCOC1=O", "target": "ExpR2 (Pectobacterium carotovorum)", "assay": "cellulase activity, agonist", "system": "Pectobacterium carotovorum, single-ExpR2 strain", "conditions": "200 µM, 4 h", "scale": "reference: OHHL", "quantity": "activation", "result": "19%"}
{"note": "Excerpt of the above:"}
{"SMILES": "CCOP(=S)(OCC)Oc1nc(Cl)c(Cl)cc1Cl", "target": "nanobody A4", "assay": "binding, ic-ELISA", "conditions": "together with: H1-OVA coating antigen", "quantity": "IC50", "result": "> 4 µg/mL"}
